Published values of several laboratories.
Compare with care: the assays were run in different laboratories. ± gives the spread as reported.

Structure (SMILES)	organism	assay	test system	setting	how to read	endpoint	result
CC(=O)Oc1ccc(Cn2cc(F)c(=O)[nH]c2=O)cc1C1OC(c2ccc(Cl)cc2)=NN1C(C)=O (centres unmarked)	Leishmania donovani	–	RAW264.7	intramacrophage amastigotes	baseline: CC50 over IC50	selectivity index	< 1
CC[C@H](C)[C@H](NC(=O)[C@H](CCCNC(=N)N)NC(=O)[C@@H](NC(=O)[C@H](C)NC(=O)[C@@H](NC(=O)[C@@H](NC(=O)[C@H](CC(C)C)NC(=O)[C@H](CCCNC(=N)N)NC(=O)[C@@H](N)C(C)C)[C@@H](C)CC)C(C)C)C(C)C)C(=O)N[C@@H](Cc1c[nH]c2ccccc12)C(=O)N[C@@H](CCCNC(=N)N)C(=O)N[C@@H](CCCNC(=N)N)C(N)=O	Galleria mellonella	–	–	concentration not given, 48 h, uninfected larvae, toxicity	–	survival	90 ± 14%
COc1ccc(CNc2nc(N3CCC[C@H]3CO)ncc2C(=O)NNC(=O)c2cnc(N3CCC[C@H]3CO)nc2NCc2ccc(OC)c(Cl)c2)cc1Cl	Salmonella typhimurium	–	TA1535	1000 µg/plate, 48 h, together with: rat liver S9	–	revertant count	33 ± 2
C[C@@H](O)[C@H](NC(=O)[C@H](Cc1ccc(O)cc1)NC(=O)[C@@H]1CCCN1C(=O)OCC1c2ccccc2-c2ccccc21)C(=O)N[C@@H](CCCNC(=N)N)C(=O)N[C@@H](CO)C(=O)NCC(=O)N1CCC[C@H]1C(=O)NCC(=O)N[C@@H](Cc1c[nH]c2ccccc12)C(=O)N[C@@H](CO)C(=O)N[C@@H](CO)C(=O)N[C@@H](Cc1c[nH]cn1)C(=O)O	Escherichia coli	bacterial growth, OD600	BL21, LB medium	6 h	–	CC50	> 200 µg/mL
NCCCn1c2ccc([N+](=O)[O-])cc2c(=O)n1Cc1ccccc1	Leishmania amazonensis	–	mouse peritoneal macrophages	intracellular amastigotes	baseline: CC50 macrophages over IC50 amastigotes	selectivity index	15
CC1(C)C(C=C(Cl)Cl)C1C(=O)OCc1c(F)c(F)c(F)c(F)c1F (centres unmarked)	Anopheles funestus	tile contact bioassay	FANG, susceptible, female adults	30 min exposure, 24 h mortality	–	LC50	0.0237 mg/m²
CC(=O)OCCn1c2ccc([N+](=O)[O-])cc2c(=O)n1Cc1ccccc1	Leishmania amazonensis	–	promastigotes, MHOM/BR/77/LTB0016	–	baseline: CC50 macrophages over IC50 promastigotes	selectivity index	191
NCC(=O)N[C@@H](Cc1ccccc1)C(=O)N[C@@H](Cc1ccccc1)C(=O)N[C@@H](CC(=O)O)C(=O)O	Aplysia californica	–	ganglion homogenate	50 µM, pH 7.4, 37 °C	–	half-life	8.4 min
CC1(C)C(C=C(Cl)Cl)C1C(=O)OCc1ccc(F)cc1 (centres unmarked)	Anopheles funestus	tile contact bioassay	FANG, susceptible, female adults	30 min exposure, 24 h mortality	–	LC50	1.42 mg/m²
C/C=C/c1ccc(OC(C)=O)c(OC)c1	Artemia salina	toxicity	nauplii, artificial sea water	–	–	LC50	30.5 mM
CC[C@H](C)[C@H](NC(=O)[C@@H](CCCNC(=N)N)NC(=O)[C@H](CCCNC(=N)N)NC(=O)[C@H](Cc1ccccc1)NC(=O)[C@H](Cc1c[nH]c2ccccc12)NC(=O)[C@H](CCCNC(=N)N)NC(=O)[C@@H]1CCCN1C(=O)[C@H](CCCNC(=N)N)NC(=O)[C@@H]1CCCN1C(=O)[C@H](CC(C)C)NC(=O)[C@H](Cc1ccc(O)cc1)NC(=O)[C@@H]1CCCN1C(=O)[C@@H]1CCCN1C(=O)[C@H](CCCCN)NC(=O)[C@H](CC(=O)O)NC(=O)[C@@H](N)C(C)C)C(=O)N[C@@H](Cc1ccc(O)cc1)C(=O)N[C@@H](CC(N)=O)C(=O)N[C@H](CCCNC(=N)N)C(N)=O	Escherichia coli	LC-MS	BW25113	8 µg/mL, 30 min	–	cellular peptide amount	626 ng
CCCCNCC(O)Cn1c2ccc(Cl)cc2c2cc(Cl)ccc21 (centres unmarked)	Schistosoma japonicum	–	–	5 µg/mL, adult worms	–	mortality	100%
COC(=O)Cn1c2ccc([N+](=O)[O-])cc2c(=O)n1Cc1ccccc1	Leishmania amazonensis	–	promastigotes, MHOM/BR/77/LTB0016	–	baseline: CC50 macrophages over IC50 promastigotes	selectivity index	285
CC1(C)C(C=C(Cl)Cl)C1C(=O)OCc1c(F)ccc(F)c1F (centres unmarked)	Anopheles funestus	tile contact bioassay	FUMOZ-R, resistant, female adults	30 min exposure, 24 h mortality	–	LC50	0.285 mg/m²
CCC(=O)N(C)c1ccc(Cl)c(Cl)c1	Escherichia coli	Ames test	WP2 uvrA	0.10 mg/plate, with rat liver S9	–	revertants	30 ± 10.6 revertants/plate
O=c1c2cc([N+](=O)[O-])ccc2n(CCN2CCCC2)n1Cc1ccccc1	Leishmania amazonensis	–	promastigotes, MHOM/BR/77/LTB0016	–	baseline: CC50 macrophages over IC50 promastigotes	selectivity index	195
CC(=NNC(=N)N)c1nnn(-c2ccc(C#CC3(O)CCCCC3)cc2)c1C	Escherichia coli	–	Caco-2, JW55031 tolC mutant	–	baseline: Caco-2 IC50 over MIC	selectivity index	0.69
CC1(C)C(C=C(Cl)Cl)C1C(=O)OCc1ccccc1 (centres unmarked)	Anopheles funestus	tile contact bioassay	FUMOZ-R, resistant, female adults	30 min exposure, 24 h mortality	–	LC50	4.47 mg/m²
COc1ccc(CNc2nc(N3CCC[C@H]3CO)ncc2C(=O)NN)cc1Cl	Salmonella typhimurium	–	TA100	125 µg/plate, 48 h, together with: rat liver S9	–	revertant count	158 ± 30
NCCn1c2ccc([N+](=O)[O-])cc2c(=O)n1Cc1ccccc1	Leishmania amazonensis	–	promastigotes, MHOM/BR/77/LTB0016	–	baseline: CC50 macrophages over IC50 promastigotes	selectivity index	155

For quick reference, copied from above:
Structure (SMILES)	organism	assay	test system	setting	how to read	endpoint	result
NCC(=O)N[C@@H](Cc1ccccc1)C(=O)N[C@@H](Cc1ccccc1)C(=O)N[C@@H](CC(=O)O)C(=O)O	Aplysia californica	–	ganglion homogenate	50 µM, pH 7.4, 37 °C	–	half-life	8.4 min
CC(=O)Oc1ccc(Cn2cc(F)c(=O)[nH]c2=O)cc1C1OC(c2ccc(Cl)cc2)=NN1C(C)=O (centres unmarked)	Leishmania donovani	–	RAW264.7	intramacrophage amastigotes	baseline: CC50 over IC50	selectivity index	< 1
